Measurements of several laboratories.
Compare with care: the assays were run in different laboratories. “And” joins repeats or separate records; there may be more than shown. ± gives the spread as reported.

Structure (SMILES)	test	system	setting	scale	quantity	result
CCO[C@H]1CCN(Cc2c(OC)cc(C)c3[nH]ccc23)[C@H](c2ccc(C(=O)O)cc2)C1		PNH patients, blood	oral, 25 mg then 100 mg, week 4, mean percent change	baseline: baseline	PNH RBC clone size	130%
NC(=O)c1cnc2[nH]ccc2c1N[C@@H]1[C@@H]2CC3C[C@H]1C[C@@](O)(C3)C2	flow cytometry, item: CD8+ central memory T cells	Japanese healthy subjects, peripheral blood	oral, 100 mg twice daily, day 7		change from baseline	0.38%
CC[C@H](C)[C@H](NC(=O)[C@H](CCCNC(=N)N)NC(=O)[C@H](CCC(=O)O)NC(C)=O)C(=O)N[C@H]1CSSC[C@@H](C(=O)N[C@H](C(N)=O)[C@@H](C)O)NC(=O)[C@H](CCCNC(=N)N)NC(=O)[C@H](Cc2c[nH]cn2)NC(=O)[C@H](Cc2cccc3ccccc23)NC(=O)CNC(=O)[C@H](Cc2c[nH]c3ccccc23)NC(=O)[C@H](CC(=O)O)NC(=O)[C@H](CCC(N)=O)NC(=O)[C@H](Cc2cccc3ccccc23)NC(=O)[C@H](C(C)C)NC1=O	complement activation, inhibitor, ELISA, item: C3b	normal human serum			IC50	3.85 ± 0.17 µM
O=C(O)CNC(=O)Cc1ccccc1		ventricular cardiomyocytes, C57BL/6 mouse	dose not given, 0.308 s		sarcomere length	1.71 µm
C=CC(=O)N1CCC(c2ccc(C(N)=O)c(-c3ccc(Oc4ccccc4)cc3)n2)CC1	tumour response, Lugano classification	patients with relapsed/refractory MCL	independent review, 10.5 months follow-up		PR	54.7%
CC(C)NCC(O)c1ccc(O)c(O)c1 (stereo not drawn)		ventricular cardiomyocytes, C57BL/6 mouse	dose not given, 0.824 s		sarcomere length	1.54 µm
O=C1CC(N2CCN(c3ncccn3)CC2)C(=O)N1c1cc(Cl)cc(Cl)c1 (stereo not drawn)	CoA-CPM signal reduction, CPM fluorescence thiol	cell-free biochemical	assay interference counter-screen, with: CoA replacing acetyl-CoA		IC50	> 125 µM
Cn1cc(Nc2nccc(-c3ccc4c(c3)CN(C3COC3)CC[C@H]4NC(=O)c3cn(C(C)(C)C)nn3)n2)cn1	item: Superpathway of Cholesterol Biosynthesis	splenic B cells, mouse	in vivo, 30 mg/kg, IgD-activated B cells	baseline: vehicle, positive = activation	pathway activation z-score	-2.89
CC(C)C[C@H](NC(=O)[C@H](CCC1CCCCC1)NC(=O)[C@@H]1CCCN1C(=O)c1ccc(F)cc1)C(=O)NC(C)(C)C(=O)N[C@@H](CC(C)C)C(=O)N[C@@H](CC(C)C)C(=O)NC(C)(C)C(=O)NC(C)(C)C(=O)NCCC(=O)NCCN(C)C		small unilamellar vesicles	concentration not given		calcein leakage	6.61%
N=C(N)c1ccc(-c2ccc(-c3ccc(C(=N)N)cc3)o2)cc1	plasma clotting	normal human plasma	up to 100 µM		EC×1.5 prothrombin time	no effect
O[C@H]1CCCN[C@@H]1CCCn1cnc2c(Cl)c(Cl)ccc21	ELISA, item: Pro-C3	healthy human volunteers, serum	100 mg, day 1, multiple ascending dose		maximum reduction	13.7%
CC(CCc1ccc(O)cc1)NCCc1ccc(O)c(O)c1 (stereo not drawn)		anaesthetised instrumented rat	iv infusion, 1 µg/kg/min, 15 min, unit not given	baseline: baseline	mean arterial pressure change	0 ± 1.3
C[C@@H]1C[C@H]2[C@@H]3CCC4=CC(=O)C=C[C@]4(C)[C@@]3(F)[C@@H](O)C[C@]2(C)[C@@]1(O)C(=O)CO		mouse, oxazolone dermatitis, plasma	topical, 20 mg/ear, once daily, unit not given	baseline: vehicle	IL4 level difference	-28.5
CN(C)C(=O)Oc1cccc([N+](C)(C)C)c1	neuromuscular block reversal	rat	dose not given, 19.5 (unit not given), with: cisatracurium	baseline: T1 twitch	train-of-four ratio	98.8
O=S(=O)(Nc1ccc(O)c(Br)c1)c1ccccc1	CoA-CPM signal reduction, CPM fluorescence thiol	cell-free biochemical	assay interference counter-screen, with: CoA replacing acetyl-CoA		IC50	> 125 µM
C[C@@H](O)CCOC(=O)C[C@@H](C)O	item: C16:1-OH/C14:1-DC acylcarnitine	human, plasma	60 min, log2-transformed values		metabolite level	-6.88 ± 0.46 µmol/L
O=C(Oc1ccc(NS(=O)(=O)c2ccccc2)cc1Br)c1ccccc1	CoA-CPM signal reduction, CPM fluorescence thiol	cell-free biochemical	assay interference counter-screen, with: CoA replacing acetyl-CoA		IC50	> 125 µM
COc1ccc(-c2cncc(N[C@@H](C)c3cccc(NC(=O)c4cncc(C)c4)c3)n2)cc1OC	item: rno-miR-24-3p	rat SU5416/hypoxia model, lung	dose not given, unit not given	baseline: SU5416/hypoxia vehicle	delta delta Ct	0.451

Structure (SMILES)	test	system	setting	scale	quantity	result
C[C@H](Oc1ccc(Br)cc1-c1ccon1)C(=O)O	first response latency	human, tibialis anterior muscle	50 mg, 15 Hz, single ascending dose		difference from placebo	-1.07%
CCc1c(C)nc(-c2ccc(Cl)s2)nc1Nc1ccc(CC(=O)O)cc1		mice, chronic ethanol plus binge, liver	intraperitoneal, 0.3 mg/kg daily, ethanol diet 4 weeks, dosed last two	baseline: vehicle	TUNEL-positive cells	decreased
CO[C@@H]1[C@@H](OC(N)=O)[C@@H](O)[C@H](Oc2ccc3c(O)c(NC(=O)c4ccc(O)c(CC=C(C)C)c4)c(=O)oc3c2C)OC1(C)C		Brca1 wild-type MEFs, mouse	200 µM		colony survival	21.4% and 6.98% and 1.52% and 14.1% and 24.8%
O=C(NC[C@H]1CN(c2ccc(N3CCOCC3=O)cc2)C(=O)O1)c1ccc(Cl)s1		human mild renal impairment, plasma	10 mg, geometric mean, unit not given	baseline: baseline	maximum prothrombin time prolongation	8.63
C[C@H]1C[C@H]2CSC(N)=N[C@@]2(c2nc(NC(=O)c3ccc(OC(F)F)cn3)cs2)CO1	item: Aβ1-40	healthy adults, plasma	125 mg once daily, day 1	baseline: placebo	percent change from baseline	-87.7%
CN1CC[C@H](c2c(O)cc(O)c3c(=O)cc(-c4ccccc4Cl)oc23)[C@H](O)C1		zebrafish embryos	dose not given, 24 hpf		RNA Pol II CTD Ser2 phosphorylation	decreased
N#CCC1CCN(c2nc(Nc3ccc(N4CCC(O)CC4)cc3)c3c(=O)[nH]ncc3n2)CC1	Olink multiplex	human, serum	80 mg, day 29, unit not given	baseline: baseline	IL-18 level change	-1.59
O=S(=O)(NCc1ccccc1)c1ccc2nsnc2c1	CoA-CPM signal reduction, CPM fluorescence thiol	cell-free biochemical	assay interference counter-screen, with: CoA replacing acetyl-CoA		IC50	> 125 µM
CC(c1cc2ccccc2s1)N(O)C(N)=O (stereo not drawn)		human blood	3 µM, with: A23187		arachidonic acid level	97900 ± 12900 pg/mL
Cc1noc(C)c1-c1cc(C(O)(c2ccccn2)c2ccccn2)c2nc(C3CC3)[nH]c2c1	item: HEXIM1 expression	human, peripheral blood	2 mg, day 8, 1604 study		maximum induction	30%
CN(C)C(=O)c1cc2cnc(Nc3ccc(N4CCNCC4)cn3)nc2n1C1CCCC1	RNA-seq GSEA, item: HALLMARK_MYC_TARGETS gene set	MB002 tumour	concentration not given	baseline: vehicle, direction not given	enrichment score	0.534
COc1cc2cc(-c3ccc(CC(=O)Nc4cc(C(C)(C)C(F)(F)F)no4)cn3)cnc2cc1OC	RECIST v1.1	human RET-altered solid tumours	dose not given, phase I		best overall response CR	0%
O=C(O)CCC(=O)O.[2H]C([2H])([2H])Oc1cc(C)c2[nH]ccc2c1CN1CC[C@@H](C2CC2)C[C@H]1c1ccc(C(=O)O)cc1	EIA, item: complement fragment Bb	human, plasma	200 mg once daily, multiple ascending dose		maximum inhibition	47.5%
N#Cc1ccc2c(-c3ccncc3)c(-c3ccc(F)cc3)nn2c1	kinase binding, competitor, MIB/MS competition, item: NPR1	Candida albicans cell lysate	100 nM	baseline: DMSO	log2 fold change	-0.382
NCC(=O)Nc1cncc(-c2nn3c(=O)cc(N4CCNCC4)nc3s2)c1	ADP-induced platelet aggregation, light transmission aggregometry	human, stable CAD on aspirin, ex vivo platelets	subcutaneous, 0.04 mg/kg, 15 min post-dose, median value, with: ADP 20 µM		inhibition	53.5%
Cc1ccc([C@@H]2O[C@H](CO)[C@@H](O)[C@H](O)[C@H]2O)cc1Cc1ccc(-c2ccc(F)cc2)s1		Japanese type 2 diabetes patients	100 mg, day 1	baseline: day 0	change, mean 24 h, plasma glucose	-19 mg/dL
Clc1cccc(Nc2nc(-c3ccncc3)no2)c1	CoA-CPM signal reduction, CPM fluorescence thiol	cell-free biochemical	assay interference counter-screen, with: CoA replacing acetyl-CoA		IC50	> 125 µM
Cc1cn(-c2ccc3n(c2=O)CCN([C@@H](C)[C@@H]2CC[C@H](c4cc(F)c(Cl)cc4C(F)(F)F)O2)C3=O)cn1		human, CSF	300 mg single dose, serial CSF sampling	baseline: placebo and baseline	maximum CSF Aβ37 increase	294%

For quick reference, copied from above:
Structure (SMILES)	test	system	setting	scale	quantity	result
O=C(O)CCC(=O)O.[2H]C([2H])([2H])Oc1cc(C)c2[nH]ccc2c1CN1CC[C@@H](C2CC2)C[C@H]1c1ccc(C(=O)O)cc1	EIA, item: complement fragment Bb	human, plasma	200 mg once daily, multiple ascending dose		maximum inhibition	47.5%
N#Cc1ccc2c(-c3ccncc3)c(-c3ccc(F)cc3)nn2c1	kinase binding, competitor, MIB/MS competition, item: NPR1	Candida albicans cell lysate	100 nM	baseline: DMSO	log2 fold change	-0.382
NCC(=O)Nc1cncc(-c2nn3c(=O)cc(N4CCNCC4)nc3s2)c1	ADP-induced platelet aggregation, light transmission aggregometry	human, stable CAD on aspirin, ex vivo platelets	subcutaneous, 0.04 mg/kg, 15 min post-dose, median value, with: ADP 20 µM		inhibition	53.5%
Cc1ccc([C@@H]2O[C@H](CO)[C@@H](O)[C@H](O)[C@H]2O)cc1Cc1ccc(-c2ccc(F)cc2)s1		Japanese type 2 diabetes patients	100 mg, day 1	baseline: day 0	change, mean 24 h, plasma glucose	-19 mg/dL
